Measurements pooled from the literature.
A part holds a random share of what one study measured. “And” joins repeats or separate records; there may be more than shown.
Sequence of UniProt Q9H422 (whole entry, looked up): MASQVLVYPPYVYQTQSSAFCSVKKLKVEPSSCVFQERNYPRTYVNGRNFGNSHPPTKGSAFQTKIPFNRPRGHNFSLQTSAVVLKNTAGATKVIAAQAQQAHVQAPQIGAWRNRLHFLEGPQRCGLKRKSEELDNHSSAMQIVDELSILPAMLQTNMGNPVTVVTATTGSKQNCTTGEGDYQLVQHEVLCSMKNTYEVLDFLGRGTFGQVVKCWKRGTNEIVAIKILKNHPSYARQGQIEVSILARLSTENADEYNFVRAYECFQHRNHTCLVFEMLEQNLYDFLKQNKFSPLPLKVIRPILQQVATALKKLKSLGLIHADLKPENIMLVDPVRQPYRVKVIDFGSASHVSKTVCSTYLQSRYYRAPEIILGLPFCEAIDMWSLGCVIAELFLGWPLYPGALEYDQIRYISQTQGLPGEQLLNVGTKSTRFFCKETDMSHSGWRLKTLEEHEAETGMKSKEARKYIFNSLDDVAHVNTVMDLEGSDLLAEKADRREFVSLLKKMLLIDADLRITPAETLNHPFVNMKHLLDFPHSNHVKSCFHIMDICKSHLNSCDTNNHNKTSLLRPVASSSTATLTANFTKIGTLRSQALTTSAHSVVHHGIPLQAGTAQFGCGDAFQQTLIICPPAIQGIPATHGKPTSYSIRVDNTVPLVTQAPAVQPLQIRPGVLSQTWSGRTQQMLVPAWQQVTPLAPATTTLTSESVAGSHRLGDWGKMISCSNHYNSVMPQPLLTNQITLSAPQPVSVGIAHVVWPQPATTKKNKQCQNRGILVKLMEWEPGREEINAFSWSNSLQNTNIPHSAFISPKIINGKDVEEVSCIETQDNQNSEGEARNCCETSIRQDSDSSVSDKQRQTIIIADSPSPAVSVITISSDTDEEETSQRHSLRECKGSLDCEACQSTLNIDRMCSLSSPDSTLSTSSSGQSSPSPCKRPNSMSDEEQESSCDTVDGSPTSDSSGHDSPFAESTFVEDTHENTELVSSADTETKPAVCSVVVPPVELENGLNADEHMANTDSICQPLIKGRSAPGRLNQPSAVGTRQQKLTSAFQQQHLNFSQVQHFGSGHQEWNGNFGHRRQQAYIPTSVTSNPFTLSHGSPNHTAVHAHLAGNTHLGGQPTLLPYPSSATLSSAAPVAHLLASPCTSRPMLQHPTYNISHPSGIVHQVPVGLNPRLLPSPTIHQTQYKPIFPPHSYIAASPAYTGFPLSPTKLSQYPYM
Sequence of UniProt Q15208 (whole entry, looked up): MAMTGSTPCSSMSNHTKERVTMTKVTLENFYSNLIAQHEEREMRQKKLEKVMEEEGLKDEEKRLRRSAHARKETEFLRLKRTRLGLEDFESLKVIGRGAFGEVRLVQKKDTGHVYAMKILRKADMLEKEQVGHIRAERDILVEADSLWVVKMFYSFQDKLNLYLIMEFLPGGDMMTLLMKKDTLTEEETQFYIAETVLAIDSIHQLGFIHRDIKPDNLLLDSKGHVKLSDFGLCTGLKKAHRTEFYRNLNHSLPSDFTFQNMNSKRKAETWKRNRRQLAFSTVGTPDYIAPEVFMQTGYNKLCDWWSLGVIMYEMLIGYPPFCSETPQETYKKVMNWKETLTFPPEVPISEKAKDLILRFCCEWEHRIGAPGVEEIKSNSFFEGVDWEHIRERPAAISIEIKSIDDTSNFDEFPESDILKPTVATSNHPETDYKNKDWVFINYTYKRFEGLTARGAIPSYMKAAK

Set 1
SMILES: CCCCN(CCCC)C(=O)CN1C[C@H](c2cc(OC)c3c(c2)OCO3)[C@@H](C(=O)O)[C@@H]1CC(C)(C)CCC
Read-out: cell-free assay
Method: competition with immobilised ligand
Tested at: 1 µM
target | remaining binding
MUSK (Homo sapiens, UniProt O15146) | 100%
CDK15 (Homo sapiens, UniProt Q96Q40) | 100%
CSNK2A1 (Homo sapiens, UniProt P68400) | 68.5%
CDK5 (Homo sapiens, UniProt Q00535) | 100%
Tyrosine-protein kinase ABL1, non-phosphorylated (ABL1, Homo sapiens, UniProt P00519) | 96.5%
NEK3 (Homo sapiens, UniProt P51956) | 99.1%
MAPK12 (Homo sapiens, UniProt P53778) | 100%
STK38 (Homo sapiens, UniProt Q15208) | 80.7%
HIPK3 (Homo sapiens, UniProt Q9H422) | 100%
Aurora kinase B (AURKB, Homo sapiens, UniProt Q96GD4) | 100%
MAPK13 (Homo sapiens, UniProt O15264) | 100%
LATS1 (Homo sapiens, UniProt O95835) | 100%
ERN1 (Homo sapiens, UniProt O75460) | 70.6%
PIP5K1A (Homo sapiens, UniProt Q99755) | 100%
NEK2 (Homo sapiens, UniProt P51955) | 100%

Set 2
Target: Serine/threonine-protein kinase pim-3 (PIM3, Homo sapiens, UniProt Q86V86)
Read-out: enzyme activity
Mode: inhibitor
Tested at: 0.5 µM
Baseline: control
SMILES | remaining activity [%]
COc1cc2c(cc1OC)-c1[nH]nc(Nc3cccc(F)c3)c1C2 | 95.3
Cc1cc2ncc(-c3ccccc3)nc2cc1C | 102
Ic1cccc(CSc2nnc(-c3ccncc3)o2)c1 | 106
N#Cc1c(NC(=O)c2cccc3ccccc23)sc2c1CCCC2 | 95.3
Cc1nc2cc3nc(-c4cccs4)cnc3cc2n1C | 91.2
O=c1cc(-c2cccc3c2Sc2ccccc2S3)oc(N2CCOCC2)c1 | 52.3
COc1cc2ncnc(Nc3ccc(O)c(Br)c3)c2cc1OC | 73.3
CN(C)C[C@H]1CCn2c(c(C3=C(c4cn(C)c5ccccc45)C(=O)NC3=O)c3ccccc32)C1 | 83.1
c1ccc(-c2cnc(Nc3ccc(OCCN4CCCC4)cc3)s2)cc1 | 120
C[C@@H]1CCN(C(=O)CC#N)C[C@@H]1N(C)c1ncnc2[nH]ccc12 | 96.5
CCOc1nc(NC(=O)Cc2cc(OC)ccc2OC)cc(N)c1C#N | 95.2
CCN(CC)CCNC(=O)c1c(C)[nH]c(/C=C2\C(=O)Nc3ccc(F)cc32)c1C | 56.8
CCN(CC)CCNC(=O)c1c(C)[nH]c(/C=C2\C(=O)Nc3ccc(Cl)cc32)c1C | 74
Cn1nc2c3c(cccc31)C(=O)c1ccccc1-2 | 76.8
Cc1cn(-c2cc(NC(=O)c3ccc(C)c(Nc4nccc(-c5cccnc5)n4)c3)cc(C(F)(F)F)c2)cn1 | 97.8
Nc1cccc(-c2cc3c(Oc4cccc(O)c4)ncnc3[nH]2)c1 | 129
CN([C@@H](Cc1ccc(OS(=O)(=O)c2cccc3cnccc23)cc1)C(=O)N1CCN(c2ccccc2)CC1)S(=O)(=O)c1cccc2cnccc12 | 113
O=C(NC(NC(=S)Nc1ccc(F)c([N+](=O)[O-])c1)C(Cl)(Cl)Cl)C(c1ccccc1)c1ccccc1 (stereo not drawn) | 120
CCN(CC)C(=O)c1ccc(Nc2nc(OCC3CCCCC3)c3[nH]cnc3n2)cc1 | 109
O=C1C(Cl)=C(N2C(=O)CCC2=O)C(=O)c2ccccc21 | 101
COc1cc2ncnc(Nc3cccc(Cl)c3)c2cc1OC | 99.4
N#C/C(=C\c1ccc(O)c(O)c1)C(=O)NCc1ccccc1 | 95.8
c1ccc(-c2[nH]ncc2-c2ccnc3ccccc23)nc1 | 90.6
O=C1c2ccccc2-c2n[nH]c3cccc1c23 | 55.3
O=C(Nc1cccc(Nc2nccc(Nc3cccc(C(F)(F)F)c3)n2)c1)C1CC1 | 106

Set 3
Target: Calcium/calmodulin-dependent protein kinase type II subunit alpha (CAMK2A, Homo sapiens, UniProt Q9UQM7)
Sequence of UniProt Q9UQM7 (whole entry, looked up): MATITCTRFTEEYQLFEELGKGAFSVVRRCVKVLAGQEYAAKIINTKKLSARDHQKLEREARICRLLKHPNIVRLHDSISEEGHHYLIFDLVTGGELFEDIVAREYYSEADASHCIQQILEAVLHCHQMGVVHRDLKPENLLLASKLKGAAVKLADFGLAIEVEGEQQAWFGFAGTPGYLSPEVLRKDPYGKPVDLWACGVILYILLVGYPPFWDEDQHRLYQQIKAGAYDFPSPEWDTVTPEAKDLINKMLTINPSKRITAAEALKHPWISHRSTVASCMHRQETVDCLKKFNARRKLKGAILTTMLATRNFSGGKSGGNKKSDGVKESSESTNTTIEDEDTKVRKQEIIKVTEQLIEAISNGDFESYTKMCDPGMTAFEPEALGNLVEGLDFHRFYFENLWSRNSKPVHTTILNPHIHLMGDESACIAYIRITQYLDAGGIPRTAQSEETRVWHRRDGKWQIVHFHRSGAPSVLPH
Read-out: enzyme activity
Mode: inhibitor
Tested at: 10 µM
SMILES | inhibition [%]
COc1ccccc1C=CC=O | 16
Cc1cc(/C=C/C#N)cc(C)c1Nc1ccnc(Nc2ccc(C#N)cc2)n1 | -14
C=C(C)[C@@H]1CC[C@]2(C)CC[C@]3(C)[C@H](CC[C@@H]4[C@@]5(C)CC[C@H](O)C(C)(C)[C@@H]5CC[C@]43C)[C@@H]12 | -28
CC(=O)N[C@@H](Cc1cnc[nH]1)C(=O)O | -7
OCCc1ccc(O)c(O)c1 | -15
C=C(C)[C@@H]1CC[C@]2(C)CC[C@]3(C)[C@H](CC[C@@H]4[C@@]5(C)CCC(=O)C(C)(C)[C@@H]5CC[C@]43C)[C@@H]12 | 3
CCCNC(C)C(=O)Nc1c(C)csc1C(=O)OC (stereo not drawn) | -7
CC1(C)O[C@H]2CC(=O)OC[C@@]23[C@H]1CC(=O)[C@@]1(C)C2=CC(=O)O[C@@H](c4ccoc4)[C@]2(C)CC[C@@H]13 | -6
C[C@@H]1O[C@@H](Oc2cc(O)c3c(=O)c(O)c(-c4ccc(O)cc4)oc3c2O)[C@H](O)[C@H](O[C@@H]2O[C@H](CO)[C@@H](O)[C@H](O)[C@H]2O)[C@H]1O | -7
O=C1C(CC[S+]([O-])c2ccccc2)C(=O)N(c2ccccc2)N1c1ccccc1 (stereo not drawn) | -14
CC1(C)CCC[C@](C)([C@H]2CC[C@]3(C)[C@@H]2[C@H](O)C[C@@H]2[C@@]4(C)CC[C@H](O)C(C)(C)[C@@H]4CC[C@]23C)O1 | -1
CC1(C)[C@H](OC(=O)c2ccccc2)CC[C@]2(C)C3=C([C@@H](O)C[C@@H]12)[C@@]1(C)CC[C@@]2(C)CC[C@@](C)(COC(=O)c4ccccc4)C[C@H]2[C@]1(C)CC3 | 0
C/C(=C\CC[C@@H](C)[C@H]1CC[C@@]2(C)C3=CC[C@H]4C(C)(C)[C@@H](O)CC[C@]4(C)C3=CC[C@]12C)CO | -25
CCNC(=O)CC[C@H](N)C(=O)O | 7

Set 4
Target: DNA polymerase theta, ATPase domain (POLQ, Homo sapiens, UniProt O75417)
Sequence of UniProt O75417 (whole entry, unmodified, looked up): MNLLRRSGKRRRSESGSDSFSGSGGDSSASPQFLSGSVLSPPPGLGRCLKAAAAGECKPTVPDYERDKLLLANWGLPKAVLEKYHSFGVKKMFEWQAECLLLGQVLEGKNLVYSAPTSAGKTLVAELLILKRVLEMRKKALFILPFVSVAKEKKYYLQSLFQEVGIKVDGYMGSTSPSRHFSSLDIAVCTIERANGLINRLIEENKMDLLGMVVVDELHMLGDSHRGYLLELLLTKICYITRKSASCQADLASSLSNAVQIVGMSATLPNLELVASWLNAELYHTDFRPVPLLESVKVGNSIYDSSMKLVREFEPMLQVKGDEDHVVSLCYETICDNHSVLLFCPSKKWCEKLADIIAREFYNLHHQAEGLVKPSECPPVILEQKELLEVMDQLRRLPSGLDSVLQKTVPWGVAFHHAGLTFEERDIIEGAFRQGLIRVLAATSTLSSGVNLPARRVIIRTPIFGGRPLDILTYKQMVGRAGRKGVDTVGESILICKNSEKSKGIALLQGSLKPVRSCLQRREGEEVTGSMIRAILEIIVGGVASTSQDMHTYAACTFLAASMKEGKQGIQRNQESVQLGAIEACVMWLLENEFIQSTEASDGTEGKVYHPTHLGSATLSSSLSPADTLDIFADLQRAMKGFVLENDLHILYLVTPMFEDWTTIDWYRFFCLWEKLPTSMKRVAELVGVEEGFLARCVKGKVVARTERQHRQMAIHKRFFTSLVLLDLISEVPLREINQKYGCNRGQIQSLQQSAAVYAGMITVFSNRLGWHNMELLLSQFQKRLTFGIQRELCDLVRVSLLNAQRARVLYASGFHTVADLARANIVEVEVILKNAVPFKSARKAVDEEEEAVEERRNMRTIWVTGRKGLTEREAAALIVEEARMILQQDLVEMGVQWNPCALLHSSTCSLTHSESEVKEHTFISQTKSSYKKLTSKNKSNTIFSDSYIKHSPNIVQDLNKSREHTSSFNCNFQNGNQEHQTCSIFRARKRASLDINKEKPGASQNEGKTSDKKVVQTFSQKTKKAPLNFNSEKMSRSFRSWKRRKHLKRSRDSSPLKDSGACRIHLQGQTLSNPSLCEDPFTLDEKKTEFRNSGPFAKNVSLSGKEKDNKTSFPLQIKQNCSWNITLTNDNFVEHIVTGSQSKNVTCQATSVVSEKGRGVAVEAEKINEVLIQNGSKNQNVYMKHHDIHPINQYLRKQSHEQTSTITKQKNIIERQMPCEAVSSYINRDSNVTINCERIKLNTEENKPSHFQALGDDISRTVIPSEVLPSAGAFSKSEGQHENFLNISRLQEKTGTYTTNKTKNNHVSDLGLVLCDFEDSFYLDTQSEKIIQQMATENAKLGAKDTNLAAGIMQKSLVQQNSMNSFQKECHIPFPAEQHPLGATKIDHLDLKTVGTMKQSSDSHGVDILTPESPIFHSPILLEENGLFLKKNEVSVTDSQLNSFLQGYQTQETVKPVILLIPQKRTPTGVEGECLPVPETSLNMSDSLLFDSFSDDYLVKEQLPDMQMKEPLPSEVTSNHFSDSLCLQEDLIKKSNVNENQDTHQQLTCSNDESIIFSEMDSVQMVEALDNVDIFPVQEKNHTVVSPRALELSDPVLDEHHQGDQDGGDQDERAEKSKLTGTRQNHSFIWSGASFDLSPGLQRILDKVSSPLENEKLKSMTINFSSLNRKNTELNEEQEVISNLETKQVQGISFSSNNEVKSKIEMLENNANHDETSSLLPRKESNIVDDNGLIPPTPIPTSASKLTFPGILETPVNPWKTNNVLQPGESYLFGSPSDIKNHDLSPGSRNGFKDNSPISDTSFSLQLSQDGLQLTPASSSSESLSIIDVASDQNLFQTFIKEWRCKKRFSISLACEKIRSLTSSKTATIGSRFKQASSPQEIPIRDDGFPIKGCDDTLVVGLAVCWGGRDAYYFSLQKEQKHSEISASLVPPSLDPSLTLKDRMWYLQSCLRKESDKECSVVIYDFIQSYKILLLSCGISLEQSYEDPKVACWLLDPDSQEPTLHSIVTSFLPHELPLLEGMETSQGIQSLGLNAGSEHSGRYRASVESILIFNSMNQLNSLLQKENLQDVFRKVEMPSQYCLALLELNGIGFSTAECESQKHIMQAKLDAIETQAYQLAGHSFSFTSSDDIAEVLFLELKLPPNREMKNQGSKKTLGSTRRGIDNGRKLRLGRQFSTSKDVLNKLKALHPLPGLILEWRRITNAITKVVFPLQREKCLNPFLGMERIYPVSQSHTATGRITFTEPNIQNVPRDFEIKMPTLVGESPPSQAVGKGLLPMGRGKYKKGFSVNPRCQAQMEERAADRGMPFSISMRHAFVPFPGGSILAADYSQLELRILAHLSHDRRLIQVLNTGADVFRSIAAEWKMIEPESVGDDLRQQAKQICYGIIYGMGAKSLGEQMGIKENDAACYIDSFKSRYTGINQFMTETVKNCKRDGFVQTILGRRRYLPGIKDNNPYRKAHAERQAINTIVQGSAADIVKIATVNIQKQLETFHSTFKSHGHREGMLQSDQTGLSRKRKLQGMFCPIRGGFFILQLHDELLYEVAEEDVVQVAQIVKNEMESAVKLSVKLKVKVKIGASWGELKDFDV
Read-out: enzyme activity
Mode: inhibitor
Tested at: 77 µM
Baseline: untreated
SMILES | remaining activity
COc1ccc(-c2cc(=O)c3c(OC)c(OC)c(OC)c(OC)c3o2)cc1 | 71.4%
CCCc1nc(C(C)(C)O)c(C(=O)OCc2oc(=O)oc2C)n1Cc1ccc(-c2ccccc2-c2nnn[nH]2)cc1 | 96.9%
O=C(O)/C=C/c1ccc(O)c(O)c1 | 98.4% and 98.7%
Cn1nnnc1SCC1=C(C(=O)O)N2C(=O)[C@@H](NC(=O)[C@H](O)c3ccccc3)[C@H]2SC1 | 100%
CN1CCC(=C2c3ccccc3Sc3ccccc32)CC1 | 103%
CNC(=O)c1cc(Oc2ccc(NC(=O)Nc3ccc(Cl)c(C(F)(F)F)c3)cc2)ccn1 | 99.5% and 94% and 95.3% and 102% and 86.8%
O=C(CCCCCCC(=O)Nc1ccc([C@H]2O[C@@H](CSc3nc(-c4ccccc4)c(-c4ccccc4)o3)C[C@@H](c3ccc(CO)cc3)O2)cc1)NO | 95.4%
CCCCC1C(=O)N(c2ccccc2)N(c2ccccc2)C1=O | 96.6% and 100%
N=C(N)N1CCc2ccccc2C1 | 101%
CN1CCC[C@@H]1Cc1c[nH]c2ccc(CCS(=O)(=O)c3ccccc3)cc12 | 108%
O=S(=O)(c1ccccc1)N(CC(F)(F)F)c1ccc(C(O)(C(F)(F)F)C(F)(F)F)cc1 | 97.8%
O=C1CC2(CCCC2)CC(=O)N1CCCCN1CCN(c2ncccn2)CC1 | 98.8%
CC(C)[C@H](CO)Nc1nc(Nc2cc(N)cc(Cl)c2)c2ncn(C(C)C)c2n1 | 92.3%
O=C(Nc1ccccc1)Nc1ccc(-c2ccc(C(=O)[C@@H]3CCC[C@H]3C(=O)O)cc2)cc1 | 101%
OCCN1CCN(CCCN2c3ccccc3C=Cc3ccccc32)CC1 | 128%
